Assay results pooled from the literature.
Each numbered part is a random draw from the data of one study; scales do not carry over between parts.

Study 1
Target: Prothrombin, mature alpha-thrombin (F2, Homo sapiens, UniProt P00734)
Technique: aptamer microarray, sandwich
Molecule type: DNA with 2'F-ANA
Sample: in vitro
Tested at: 200 nM
Notes: whole 15-mer aptamer, many near background
Added: Cy3 exosite-II aptamer, 400 nM
Reading: higher = stronger binding
Oligonucleotide: GGTTGGTGTGGTTGG
`2'F-ANA at 4 9 12 15` — result for “mean fluorescence intensity”: 456 a.u.
`2'F-ANA at 2 4 5 6 7 10`: “mean fluorescence intensity” 54.3 a.u.
For `2'F-ANA at 1 3 5 6 9 10 11 13`, “mean fluorescence intensity” read 73.7 a.u.
`2'F-ANA at 2 3 5 6 7 8 9 11 13`: “mean fluorescence intensity” 75.4 a.u.
Under “mean fluorescence intensity”, `2'F-ANA at 1 2 3 7 8 9 14` is recorded as 82.4 a.u.
`2'F-ANA at 4 9 11 13 14` — result for “mean fluorescence intensity”: 72 a.u.
`2'F-ANA at 2 3 4 5 6 9 10 12 13 15` — result for “mean fluorescence intensity”: 128 a.u.
`2'F-ANA at 1 2 3 4 9 12` — result for “mean fluorescence intensity”: 354 a.u.
`2'F-ANA at 1 2 4 7 8 9 12 13 14` — result for “mean fluorescence intensity”: 58.7 a.u.
For `2'F-ANA at 2 3 6 9 11 13 14 15`, “mean fluorescence intensity” read 292 a.u.
Under “mean fluorescence intensity”, `2'F-ANA at 1 3 9 10 11 14 15` is recorded as 58.7 a.u.
`2'F-ANA at 2 3 6 10 11 15`: “mean fluorescence intensity” 306 a.u.
Under “mean fluorescence intensity”, `2'F-ANA at 1 4 7 8 9 11 14` is recorded as 51 a.u.
Under “mean fluorescence intensity”, `2'F-ANA at 1 2 3 4 6 7 10 11 13 14` is recorded as 45.8 a.u.
`2'F-ANA at 1 2 4 6 8 9 12 14 15` — result for “mean fluorescence intensity”: 73.3 a.u.
`2'F-ANA at 1 2 4 7 9 11 12 13` — result for “mean fluorescence intensity”: 189 a.u.
`2'F-ANA at 1 3 4 5 6 7 9 10`: “mean fluorescence intensity” 51.4 a.u.
`2'F-ANA at 2 6 7 8 9 10 11 13 15` — result for “mean fluorescence intensity”: 95.6 a.u.
`2'F-ANA at 1 2 7 9 13 14 15`: “mean fluorescence intensity” 63 a.u.
Under “mean fluorescence intensity”, `2'F-ANA at 3 5 6 8 9 10 11 15` is recorded as 76.2 a.u.
`2'F-ANA at 2 4 7 8 9 14 15` — result for “mean fluorescence intensity”: 111 a.u.
For `2'F-ANA at 2 3 9 10 11 12 14 15`, “mean fluorescence intensity” read 239 a.u.

Study 2
Target: Interferon regulatory factor 5, full length, phosphomimetic (IRF5, Homo sapiens, UniProt Q13568-2, residues 1-514, K96S/S451D/S453D/S456D/S462D)
Technique: protein-binding microarray
Molecule type: double-stranded DNA, one strand shown
Sample: in vitro
Tested at: 250 nM
Notes: 60-bp whole probe
Added: salmon DNA 0.4 mg/ml
Baseline: random background probes
Reading: higher = stronger binding
Shared flanks, not repeated: GCCTAGCAC … GTCTTGATTCGCTTGACGCTGCTG
`CTCATTCTCTGTTTATGTCTGTGCTAG` gave a log fluorescence of 1.06 z-score.
With `GACGGGATCGACTATCGGGACGTGCTA` the log fluorescence was 1.26 z-score.
The log fluorescence of `TTAGGTTTCGGTCTCGGTCAGTGCTAG` is reported as 10.2 z-score.
For `TGCACTCTTTACATGGGTTTGTGCTAG`, the log fluorescence was 0.155 z-score.
With `GTCGGTTTCGGTTCCGGGACGTGCTAG` the log fluorescence was 10.3 z-score.
With `GACGATTTCTGTATCGAGACGTGCTAG` the log fluorescence was 3.02 z-score.
For `CAGAGCCTCAGGCCTCACACAGTGCTA`, the log fluorescence was -0.811 z-score.
`TGGAGAGTAGCTTTCTGAGGGTGCTAG` gave a log fluorescence of 0.152 z-score.
With `GACGTTTCCAGTTTCGAGACGTGCTAG` the log fluorescence was 5.16 z-score.
The log fluorescence of `TTACATCTCAGTATCGATTAGTGCTAG` is reported as 7.1 z-score.
With `TTGGGTTTCGACTATCGGTTAGTGCTA` the log fluorescence was 8.6 z-score.
With `GACGGACGGGACTATCGGGACGTGCTA` the log fluorescence was 0.829 z-score.
For `TCACCTCTTTTTTTGGTACTGTGCTAG`, the log fluorescence was 0.963 z-score.
For `TTAGGTTTCGGTCTAGGTTAGTGCTAG`, the log fluorescence was 10.6 z-score.
For `GGCGGTCTCGGTATCGGGACGTGCTAG`, the log fluorescence was 0.891 z-score.
`ATAGAACTGGGGACTGGATTAGTGCTA` has a log fluorescence of -0.103 z-score.
For `GACGATTTCAGTCTCGAGGCGTGCTAG`, the log fluorescence was 1.34 z-score.
`TTAGGTCTCGGAATGGGTTAGTGCTAG` has a log fluorescence of -0.00836 z-score.
`TTAGAACTGTGGACTGGATTAGTGCTA` gave a log fluorescence of -0.339 z-score.
The log fluorescence of `TCATATTTGTTTCCATTACTGTGCTAG` is reported as 1.96 z-score.

Study 3
Target: Sal-like protein 4, full length isoform A (SALL4, Homo sapiens, UniProt Q9UJQ4, residues 1-1053)
UniProt Q9UJQ4, sequence (whole entry, looked up): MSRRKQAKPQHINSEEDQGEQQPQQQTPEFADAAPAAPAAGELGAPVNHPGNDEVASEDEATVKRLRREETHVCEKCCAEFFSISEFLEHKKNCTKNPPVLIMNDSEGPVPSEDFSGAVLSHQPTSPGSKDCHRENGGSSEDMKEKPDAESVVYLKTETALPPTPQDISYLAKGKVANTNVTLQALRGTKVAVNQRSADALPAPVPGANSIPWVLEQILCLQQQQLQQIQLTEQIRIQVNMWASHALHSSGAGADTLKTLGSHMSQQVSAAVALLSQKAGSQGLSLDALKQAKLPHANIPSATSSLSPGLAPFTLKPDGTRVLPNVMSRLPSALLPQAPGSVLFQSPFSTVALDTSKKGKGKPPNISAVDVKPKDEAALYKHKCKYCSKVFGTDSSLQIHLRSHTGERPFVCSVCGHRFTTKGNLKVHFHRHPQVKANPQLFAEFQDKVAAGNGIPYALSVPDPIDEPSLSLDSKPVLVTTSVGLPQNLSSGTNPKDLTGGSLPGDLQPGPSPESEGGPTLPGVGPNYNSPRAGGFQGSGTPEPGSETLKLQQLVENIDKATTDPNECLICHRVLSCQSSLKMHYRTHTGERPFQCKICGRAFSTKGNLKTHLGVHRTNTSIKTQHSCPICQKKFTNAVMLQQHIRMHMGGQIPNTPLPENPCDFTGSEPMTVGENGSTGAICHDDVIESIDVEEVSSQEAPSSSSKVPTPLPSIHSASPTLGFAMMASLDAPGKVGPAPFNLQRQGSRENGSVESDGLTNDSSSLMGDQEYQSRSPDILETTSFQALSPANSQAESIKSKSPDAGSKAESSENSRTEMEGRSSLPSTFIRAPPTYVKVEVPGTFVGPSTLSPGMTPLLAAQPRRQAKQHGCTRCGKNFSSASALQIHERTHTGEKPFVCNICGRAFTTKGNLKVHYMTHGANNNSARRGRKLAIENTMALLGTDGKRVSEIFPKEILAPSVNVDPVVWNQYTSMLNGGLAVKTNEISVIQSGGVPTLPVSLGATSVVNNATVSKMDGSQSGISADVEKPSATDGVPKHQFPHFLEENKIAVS
Technique: universal PBM
Molecule type: double-stranded DNA, one strand shown
Sample: in vitro
Tested at: 600 nM
Notes: 8-mer, flanks averaged, mean of replicates
Reading: higher = stronger binding
For `AGCAGTTC`, the E-score was -0.0056.
The E-score of `AAGACTGT` is reported as -0.00822.
With `GGACAAAA` the E-score was 0.0581.
With `GGGATCAA` the E-score was 0.0346.
`GGGCCTTA` has an E-score of -0.218.
The E-score of `ACAAGGAA` is reported as 0.0558.
With `AAGATTAT` the E-score was 0.268.
`ACAAATGG` gave an E-score of 0.0678.
For `GTCGGGAA`, the E-score was -0.0142.
`CATAGGGC` has an E-score of -0.222.
The E-score of `GCCGGTCC` is reported as -0.415.
`AATTGCAT` gave an E-score of 0.279.
`AGATAGTG` gave an E-score of 0.11.
The E-score of `GCGGAACA` is reported as -0.252.
The E-score of `TAGCAGGA` is reported as -0.108.
With `TCAAGAGA` the E-score was 0.0946.
With `AACTGGAC` the E-score was -0.0875.
For `GCCCCCCA`, the E-score was -0.404.
`AGAGCCGG` gave an E-score of -0.372.
`GAGGATCC` has an E-score of -0.299.
With `ACCTTGTG` the E-score was -0.0972.

Study 4
Target: Histone acetyltransferase KAT6A, winged helix 2, GST fusion (KAT6A, Homo sapiens, UniProt Q92794, residues 85-181)
Technique: protein binding microarray
Molecule type: double-stranded DNA, one strand shown
Sample: in vitro
Tested at: not given
Notes: 8-mer, flanks averaged, mean of 2 arrays, mostly near background
Baseline: not given
Reading: higher = stronger binding
Target sequence (chain): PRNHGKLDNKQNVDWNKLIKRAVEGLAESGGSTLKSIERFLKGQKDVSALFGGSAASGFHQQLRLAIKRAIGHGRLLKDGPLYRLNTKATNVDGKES
`CTAAGACC` gave an E-score of -0.0729.
With `TGCAGGCA` the E-score was 0.0228.
`AAAATACT` has an E-score of 0.023.
The E-score of `AATACTCC` is reported as -0.177.
`CAAACATA` gave an E-score of -0.145.
`CCGGCACA` gave an E-score of 0.153.
The E-score of `CCCTGGAA` is reported as -0.123.
With `CCTCGTTA` the E-score was 0.0482.
`CTGTAGAC` has an E-score of -0.027.
`GTAACGCA` has an E-score of 0.076.
`CTGTGTAA` has an E-score of 0.141.
The E-score of `AATCATAC` is reported as -0.00301.
For `TACTAATA`, the E-score was -0.0111.
The E-score of `AAATGAGC` is reported as 0.126.
`ATACAACC` has an E-score of -0.132.
`CCACAATC` gave an E-score of 0.0723.
For `GATTTCGA`, the E-score was 0.0121.
For `AGGCGGAG`, the E-score was 0.213.
The E-score of `CTCTCCAC` is reported as -0.204.
The E-score of `GCTCCAGA` is reported as 0.157.
With `ACCTGAAC` the E-score was -0.16.

Study 5
Target: Max-binding protein MNT, bHLH-zipper, MAX partner unstated (MNT, Homo sapiens, UniProt Q99583, residues 220-300)
Technique: protein-binding microarray
Molecule type: double-stranded DNA, one strand shown
Sample: in vitro
Tested at: not given
Notes: k-mer, scored over probes, only values ≥0.25
Reading: higher = stronger binding
Residues (chain): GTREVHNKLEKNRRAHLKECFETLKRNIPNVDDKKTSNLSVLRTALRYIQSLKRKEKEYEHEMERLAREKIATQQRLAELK
`GGGCATGA` has an E-score of 0.263.
The E-score of `CGCCACGC` is reported as 0.411.
`CCACGCCG` gave an E-score of 0.37.
`CATGACGC` has an E-score of 0.256.
The E-score of `AGCACGTC` is reported as 0.26.
The E-score of `ACGTGTAG` is reported as 0.419.
For `GCAAGCAC`, the E-score was 0.262.
For `CACTCCCC`, the E-score was 0.313.
`GCACGTTA` gave an E-score of 0.394.
`AAACACGT` gave an E-score of 0.417.
For `CACACGCG`, the E-score was 0.449.
With `CCATGGCA` the E-score was 0.303.
`CACGCTGA` has an E-score of 0.384.
With `GATCCCCA` the E-score was 0.26.
With `ACGCTGAC` the E-score was 0.288.
`CACGTTGC` has an E-score of 0.444.

Study 6
Target: Centromere-binding protein 1, full length, N-terminal tag (CBF1, Saccharomyces cerevisiae, UniProt P17106, residues 1-351)
UniProt P17106, sequence (whole entry, looked up): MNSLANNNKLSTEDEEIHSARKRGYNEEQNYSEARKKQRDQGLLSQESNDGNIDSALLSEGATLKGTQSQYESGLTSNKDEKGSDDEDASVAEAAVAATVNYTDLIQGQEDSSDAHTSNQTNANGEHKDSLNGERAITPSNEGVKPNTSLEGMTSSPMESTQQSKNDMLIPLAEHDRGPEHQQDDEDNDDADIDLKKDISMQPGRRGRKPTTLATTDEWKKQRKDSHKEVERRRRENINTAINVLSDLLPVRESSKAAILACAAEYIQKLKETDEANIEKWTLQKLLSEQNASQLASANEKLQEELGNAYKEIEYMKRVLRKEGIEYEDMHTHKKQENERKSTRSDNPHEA
Technique: protein-binding microarray
Molecule type: double-stranded DNA, one strand shown
Sample: in vitro
Tested at: 0.8 µM
Notes: whole 60-bp probe, no competitor
Reading: higher = stronger binding
`CTAAAAGGGGCTCCGGTGGTGATGAGGAGAGAATTCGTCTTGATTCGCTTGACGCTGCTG` has a fluorescence intensity of 463 a.u.
`GAACAATTGGTGACTACCGTGCCTACTTGCGCCTAGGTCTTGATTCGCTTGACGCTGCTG` has a fluorescence intensity of 479 a.u.
The fluorescence intensity of `CTACTCAAAGTGTATCACGTCCCCGTCAATTTCTTCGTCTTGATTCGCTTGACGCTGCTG` is reported as 693 a.u.
`CTAACCCAACTTTACCACCAGGGCACACTTCTTTTCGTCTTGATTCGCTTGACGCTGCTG` gave a fluorescence intensity of 509 a.u.
With `GAAAAGTTGTACATTCACGTGGGCCTTATCGCCTAGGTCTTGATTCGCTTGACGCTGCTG` the fluorescence intensity was 2030 a.u.
The fluorescence intensity of `GAAGTAATGTACAATGTCGTGGTCATGAGACAATAGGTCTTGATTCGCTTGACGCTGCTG` is reported as 957 a.u.
`GAACATACATAAAAGCACATGAAGGGCAGCAAATAGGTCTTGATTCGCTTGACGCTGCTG` gave a fluorescence intensity of 633 a.u.
With `CTAGGGAGGGAGGCGCATGTGCTCTATTACTTTTTCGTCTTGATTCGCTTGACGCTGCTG` the fluorescence intensity was 848 a.u.
With `GAAACCATCATTCATCATCACTTATCATTATCATAGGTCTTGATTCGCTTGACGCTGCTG` the fluorescence intensity was 520 a.u.
The fluorescence intensity of `CCTAACTACTATAGTTACGTGTCATAGCTTCGTACAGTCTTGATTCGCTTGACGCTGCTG` is reported as 499 a.u.
`GAACTGGAGTAAAGTCAGCTGTCCTGTCACCCTTAGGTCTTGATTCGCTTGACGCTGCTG` gave a fluorescence intensity of 791 a.u.
`CTAAAGAGAGCTAGCTACAGAAATATAAACAGTTTCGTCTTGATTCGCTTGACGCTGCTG` gave a fluorescence intensity of 485 a.u.
`CTAGAAAATTTTCACCACGAGCAGTTTCTTGTGTTCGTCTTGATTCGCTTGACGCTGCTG` gave a fluorescence intensity of 601 a.u.
`CTAAAAAGAGAAAAACACGTGTGGAGAACTTTTTTCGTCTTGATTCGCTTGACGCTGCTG` gave a fluorescence intensity of 2930 a.u.
For `GAAGAAGCTAGGGAGCTCACCCGCGATATTCTGTAGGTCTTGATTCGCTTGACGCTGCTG`, the fluorescence intensity was 490 a.u.
For `CCTAACTACTATATTCCCGTGGAATAGCTTCGTACAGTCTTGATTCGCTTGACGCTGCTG`, the fluorescence intensity was 514 a.u.
The fluorescence intensity of `GAAACATTTTCACATCACGTTTCTTTTTTTTCTTAGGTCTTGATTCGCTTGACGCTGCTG` is reported as 3490 a.u.
